Measured values from different studies.
Protocols differ between the studies behind these lines. Several values in a cell are separate wells, animals, samples, runs or records.
RPS6KA3: Ribosomal protein S6 kinase alpha-3 (RPS6KA3, Homo sapiens, UniProt P51812)
Chain of UniProt P51812 (whole entry, looked up): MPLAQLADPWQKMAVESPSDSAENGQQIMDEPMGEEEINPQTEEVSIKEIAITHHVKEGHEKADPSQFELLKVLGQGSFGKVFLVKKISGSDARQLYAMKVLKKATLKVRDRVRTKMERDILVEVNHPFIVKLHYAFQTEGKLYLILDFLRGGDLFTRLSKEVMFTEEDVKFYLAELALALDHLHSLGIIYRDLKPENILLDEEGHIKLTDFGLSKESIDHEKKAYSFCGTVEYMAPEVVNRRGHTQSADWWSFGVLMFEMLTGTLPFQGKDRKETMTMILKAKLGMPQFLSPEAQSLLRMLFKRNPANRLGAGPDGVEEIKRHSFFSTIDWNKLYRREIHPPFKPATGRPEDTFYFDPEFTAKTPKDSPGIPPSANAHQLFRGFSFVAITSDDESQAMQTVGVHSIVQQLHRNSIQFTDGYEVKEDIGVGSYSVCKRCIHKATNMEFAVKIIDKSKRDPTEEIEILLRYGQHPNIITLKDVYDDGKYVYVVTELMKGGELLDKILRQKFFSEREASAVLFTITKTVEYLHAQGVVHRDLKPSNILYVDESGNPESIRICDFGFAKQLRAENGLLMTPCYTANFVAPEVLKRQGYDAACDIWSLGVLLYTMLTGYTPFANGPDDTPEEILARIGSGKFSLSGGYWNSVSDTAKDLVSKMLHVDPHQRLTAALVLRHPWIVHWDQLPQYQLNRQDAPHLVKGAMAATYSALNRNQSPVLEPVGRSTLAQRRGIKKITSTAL

COCC12C(=O)NC3C4(C(OC)CC1O)C1CC5(O)C(OC)C(O)C(OC(C)=O)(C1C5OC(=O)c1ccccc1)C3(O)C(OC)C24 (stereo not drawn) — remaining activity (RPS6KA3; kinase activity, inhibitor, ProQinase kinase profiling; 25 µM; baseline: control): 110% and 97%
Nc1ncc(-c2cc(-c3cnn(CC(F)(F)F)c3)ncc2F)nc1C(=O)NC1CNCC(F)C1 (stereo not drawn) — remaining activity (RPS6KA3; enzyme activity; 1 µM; baseline: DMSO control): 76.6%
Cc1cccc(-c2ccc3nc(NC(=O)C4CCCCC4)nn3c2)c1 — remaining activity (RPS6KA3; enzyme activity, Dundee kinase panel; 10 µM): 76%
CNC(=O)C[C@H](Cc1ccc(C#N)cc1)NC(=O)c1cc(-c2ccc(CN[C@H](C)c3ccc(C)cc3)o2)ccc1Cl — activity vs control (RPS6KA3; enzyme activity, inhibitor; 1 µM): 102%
COc1c(OCCCN2CCOCC2)ccc2c1N=C(NC(=O)c1cnc(N)nc1)N1CCN=C21 — remaining activity (RPS6KA3; kinase activity, inhibitor; 1 µM; baseline: untreated control): 121%
C=CC(=O)Nc1cc(-c2nn(C3CCN(CCNC(=O)[C@H](C)CCC45CC6CC(CC(C6)C4)C5)CC3)c3ncnc(N)c23)ccc1Oc1ccccc1 — inhibition (Ribosomal protein S6 kinase alpha-3, N-terminal kinase domain (RPS6KA3, Homo sapiens, UniProt P51812); inhibitor, KiNativ profiling; biochemical; 2 µM): 15.9%
Cc1cccc(-c2ccc3nc(NC(=O)C4CCCO4)nn3c2)c1 (stereo not drawn) — remaining activity (RPS6KA3; enzyme activity, Dundee kinase panel; 10 µM): 66%
O=C=[N][Ru-4]123([n]4c5ccc(O)cc5c5c6c(c7cc(F)c[n+]1c7c54)C(=O)NC6=O)[S+]1CC[S+]2CC[S+]3CC1 (stereo not drawn) — remaining activity (RPS6KA3; enzyme activity; 100 nM, human enzyme, added: 10 µM ATP; baseline: untreated): 21%
CS(=O)(=O)Nc1cccc(-c2csc3cnc(Nc4ccc(N5CCN(CCCCCOc6cccc7c6C(=O)N(C6CCC(=O)NC6=O)C7=O)CC5)cc4)nc23)c1 (stereo not drawn) — inhibition (Ribosomal protein S6 kinase alpha-3, C-terminal kinase domain (RPS6KA3, Homo sapiens, UniProt P51812); probe labelling, inhibitor, KiNativ chemoproteomics; MOLT-4; 1 µM): -15.7%
C#CCOC(=O)[C@]1(C)C=C(C(=O)OC(C)(C)C)C(=O)CC1 — normalized activity (RPS6KA3; RSK sensor; concentration not given; baseline: positive control): 126
O=c1c(-c2ccc(Cl)c(CN3CCOCC3)c2)coc2cc(O)ccc12 — remaining activity (RPS6KA3; enzyme activity, inhibitor; 1 µM): 101%
Cc1cccc(O[C@H]2CCC[C@@H](C(C)CNCc3ccncc3)C2)c1 (relative stereo) — inhibition (RPS6KA3; enzyme activity, inhibitor; 1 µM): -3%
CN1CCN(Cc2ccc(-c3ccc(CO[C@H]4CCC[C@@H]4NC(=O)c4cc(-c5cnn(C)c5)cnc4N)cc3)cc2)CC1 — inhibition (RPS6KA3; enzyme activity, inhibitor; 0.1 µM): 3%
C=CC(=O)Nc1cccc(-c2cnc3[nH]cc(C(=O)NC(C)(C)C)c3n2)c1 — inhibition (RPS6KA3; kinase activity; 0.1 µM): 23%
NC(=O)[C@@H](O)C[C@H]1CCc2sc3ncnc(O[C@H]4CC[C@H](N5CCOCC5)CC4)c3c21 — inhibition (RPS6KA3; enzyme activity, inhibitor; 10 µM): 24%
